Results collected from several papers.
A part holds a random share of what one study measured.

Block 1 — technique: RNA Bind-n-Seq; molecule type: RNA; medium: in vitro; tested at: 1 µM; setting: whole 134-nt RNA, ends assumed; together with: 150 mM KCl; relative to: input library; reading: higher = stronger binding
Target: Ras GTPase-activating protein-binding protein 1, C-terminal RGG region (G3BP1, Homo sapiens, UniProt Q13283)
Chain of UniProt Q13283 (whole entry, looked up): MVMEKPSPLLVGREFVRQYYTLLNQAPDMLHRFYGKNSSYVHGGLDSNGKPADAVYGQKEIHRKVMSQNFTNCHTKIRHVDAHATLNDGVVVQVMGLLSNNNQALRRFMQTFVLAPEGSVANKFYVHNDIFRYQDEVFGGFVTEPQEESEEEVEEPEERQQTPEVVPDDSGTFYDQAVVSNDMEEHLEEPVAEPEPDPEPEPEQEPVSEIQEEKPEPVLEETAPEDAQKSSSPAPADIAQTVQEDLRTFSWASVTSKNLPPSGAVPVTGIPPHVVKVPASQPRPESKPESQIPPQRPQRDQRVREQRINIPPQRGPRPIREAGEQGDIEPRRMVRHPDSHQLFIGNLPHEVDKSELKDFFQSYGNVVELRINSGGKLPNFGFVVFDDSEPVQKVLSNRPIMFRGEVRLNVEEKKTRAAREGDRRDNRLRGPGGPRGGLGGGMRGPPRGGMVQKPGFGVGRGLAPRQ
Constant ends, left off below: GGGAGUUCUACAGUCCGACGAUC … UGGAAUUCUCGGGUGUCAAGG
Strand | log2 enrichment
ACAAAGCAGGUGGGCAUCUUUGGGAAGUGGGGCAAGGGGGGGAUAGGGAGGGGGGUAACACUUUGGGAACAGGUGGUCCCAGGUCGUUUC | -0.968
UCCUGUGCUACACAUCGUAUGUACCGAAUCGGGAAAAAGGGAAAAAAAGGGUUUUUGGGAAAGUAUUAUGUUACGCCGUUCGGAUCUGCA | -0.586
AAGUCGCGUGUCUAGGUGAGUCGCGGUGGGUCCUCGCUUGCAGUUCAGCGACCACGGUGGGUACCGUUUUUGCGAGGAUUGUUUGUCCCC | -1.5
CCUGUGCUACACAUCGUAUGUACCGAAUCGGGGAAAAAAGGAAAAAAGGGAAAAAAGGGGAAAGUAUUAUGUUACGCCGUUCGGAUCUGC | -1.67
CCUCAAGUCCUGUGCUACACAUCGUAUGUACCGAAUCGGAGGAGGUUUUUGGAAAGUAUUAUGUUACGCCGUUCGGAUCUGCACUUCCAG | -0.645

Block 2 — technique: competition protein-binding microarray; molecule type: double-stranded DNA, one strand shown; medium: in vitro; tested at: 2 µM; together with: Cbf1 competitor, 0.05 µM; reading: higher = stronger binding
Target: Phosphate system positive regulatory protein PHO4, full length, GST-tagged (PHO4, Saccharomyces cerevisiae, UniProt P07270, residues 1-312)
Setting: whole 60-bp probe, lowest competitor level
Target sequence (chain): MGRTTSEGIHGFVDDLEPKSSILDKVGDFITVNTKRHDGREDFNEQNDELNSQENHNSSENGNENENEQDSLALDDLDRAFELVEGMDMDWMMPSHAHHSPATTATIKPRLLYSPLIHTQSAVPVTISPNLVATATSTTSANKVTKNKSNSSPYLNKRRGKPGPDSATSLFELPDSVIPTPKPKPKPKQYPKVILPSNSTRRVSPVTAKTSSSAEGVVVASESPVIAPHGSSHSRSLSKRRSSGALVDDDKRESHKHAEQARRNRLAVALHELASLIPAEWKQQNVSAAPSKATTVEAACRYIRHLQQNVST
Strand | fluorescence intensity
AAATTACTAAGTTGGAATGTGGGTGACGCCGTATGAGTCTTGATTCGCTTGACGCTGCTG | 6110 a.u.
TTTCCGCGATGCAGCACCGTGCGGAGAGATCCCAATGTCTTGATTCGCTTGACGCTGCTG | 8750 a.u.
AAAGCGGTAATTTGCCCGGTGGGTGCAGATATCTATGTCTTGATTCGCTTGACGCTGCTG | 4050 a.u.
CGAAAGAGAGGTTGCCACGTTTTCCCGACGGCTGCTGTCTTGATTCGCTTGACGCTGCTG | 15000 a.u.

Block 3 — technique: protein binding microarray; molecule type: double-stranded DNA, one strand shown; medium: in vitro; tested at: not given; relative to: not given; reading: higher = stronger binding
Target: Histone acetyltransferase KAT6A, winged helix 1, GST fusion (KAT6A, Homo sapiens, UniProt Q92794, residues 1-85)
Setting: 8-mer, flanks averaged, mean of 2 arrays, mostly near background
Construct (chain): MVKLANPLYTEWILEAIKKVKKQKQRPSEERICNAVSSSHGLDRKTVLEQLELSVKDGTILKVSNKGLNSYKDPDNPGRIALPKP
Strand | E-score
GACCCCCA | -0.229
CCGTGTCA | 0.255
GGTTCCAC | -0.0882
AAGCGTCT | 0.162
GTGGTAGA | -0.118

Single results of other studies
Substance | target | assay | system | setting | how to read | measurement | value
PhoQ, residues 284 288 289 292 302 303 SIHLQL | PhoP, residues 12 14 15 18 19 LHHVQ (Escherichia coli, UniProt P23836) | Sort-seq, measured: YFP reporter | E. coli | PhoQ-PhoP variant library, together with: 10 µM Mg2+ | relative to: high Mg2+ state, higher = stronger signaling | fold induction | 0.12

Excerpt of the above (block 1):
Strand | log2 enrichment
CCUCAAGUCCUGUGCUACACAUCGUAUGUACCGAAUCGGAGGAGGUUUUUGGAAAGUAUUAUGUUACGCCGUUCGGAUCUGCACUUCCAG | -0.645
UCCUGUGCUACACAUCGUAUGUACCGAAUCGGGAAAAAGGGAAAAAAAGGGUUUUUGGGAAAGUAUUAUGUUACGCCGUUCGGAUCUGCA | -0.586
